# Published values from different studies.
# Every numbered part comes from another study and shows a few of its results, in no order.

# Series 1
# Target: Histone acetyltransferase KAT6A, winged helix 2, GST fusion (KAT6A, Homo sapiens, UniProt Q92794, residues 85-181)
# Technique: protein binding microarray
# Molecule type: double-stranded DNA, one strand shown
# Medium: in vitro
# Concentration: not given
# Notes: 8-mer, flanks averaged, mean of 2 arrays, mostly near background
# Relative to: not given
# Reading: higher = stronger binding
# Target sequence (chain): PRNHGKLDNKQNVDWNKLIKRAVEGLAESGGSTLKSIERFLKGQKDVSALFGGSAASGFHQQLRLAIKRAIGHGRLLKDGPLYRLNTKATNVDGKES
Oligonucleotide,E-score
CTGCTAGC,-0.109
ATCAATTA,0.114
AAAGAAAT,0.243
GGGTCAAA,0.141
AAAGAATG,0.0565
ATTCATGA,-0.0996
CGGATATA,0.126
AGCCACCA,-0.0355
CGTTCGCC,-0.0674
ACAATTGA,-0.0267
ATATGGTG,-0.065
CATACCCC,-0.00309
ATAGACTA,-0.0271
CTGAACGC,0.0255
GGATAGCA,0.147
CCAATTAG,0.108
CACTTTAA,-0.135
GAGGGTAC,-0.148
ACCCTGAG,-0.102
CTCTAGGC,-0.039

# Series 2
# Target: Interferon regulatory factor 7, full length, phosphomimetic (IRF7, Homo sapiens, UniProt Q92985, residues 1-503, S471D/S472D/S475D/S476D/S477D/S483D/S484D/S487D)
# Technique: protein-binding microarray
# Molecule type: double-stranded DNA, one strand shown
# Medium: in vitro
# Concentration: 2200 nM top
# Notes: 60-bp whole probe
# Together with: salmon DNA 0.4 mg/ml
# Relative to: random background probes
# Reading: higher = stronger binding
# Shared flanks, not repeated: GCCTAGCAC … GTCTTGATTCGCTTGACGCTGCTG
# Construct (chain): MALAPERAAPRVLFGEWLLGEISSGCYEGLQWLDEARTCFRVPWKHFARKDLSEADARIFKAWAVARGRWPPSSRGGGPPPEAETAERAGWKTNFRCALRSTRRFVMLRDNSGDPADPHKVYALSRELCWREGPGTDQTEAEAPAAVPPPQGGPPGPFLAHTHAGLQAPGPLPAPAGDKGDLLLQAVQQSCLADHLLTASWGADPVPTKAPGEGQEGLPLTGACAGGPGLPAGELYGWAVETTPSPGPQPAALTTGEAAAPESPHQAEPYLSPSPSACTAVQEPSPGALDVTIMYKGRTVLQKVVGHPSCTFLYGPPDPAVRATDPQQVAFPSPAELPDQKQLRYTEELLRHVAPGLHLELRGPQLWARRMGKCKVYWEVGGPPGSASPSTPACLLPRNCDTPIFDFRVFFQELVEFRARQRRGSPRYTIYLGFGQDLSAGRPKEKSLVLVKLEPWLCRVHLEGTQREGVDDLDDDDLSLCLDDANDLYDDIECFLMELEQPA
Oligonucleotide,fitted relative affinity
GGGAGCTATTAATTATTTTGGTGCTAG,-0.337 z-score
TCACATGTGCTGTCTCAGACTGTGCTA,0.622 z-score
TTAGGACTGGGTCTCAGTTAGTGCTAG,-0.452 z-score
GACGATATCGGTTTCGGGACGTGCTAG,3.92 z-score
GACGGTTTCCCTCTCCTGACGTGCTAG,2.73 z-score
ATGGAAATGCACCCCACGCTGTGCTAG,0.502 z-score
TTGGGTCTGGGTATTTTTCTGTGCTAG,0.00274 z-score
GACAGTTTCGGGTATCGGGACGTGCTA,7.6 z-score
ATCGTAAGCAAAAATGATTGGTGCTAG,-0.494 z-score
TCAGTTCTTTTTTTCAAACTGTGCTAG,1.42 z-score
TTAGGTTTCGGACTCGGTTAGTGCTAG,3.77 z-score
GACGATTTCAGACTGGATACGTGCTAG,0.41 z-score
TCAGAATTTACTTTCTACGTGTGCTAG,1.48 z-score
TTAGAACTGAGAGTGGATTAGTGCTAG,-0.804 z-score
TTAGGACTTGACACTGGGTTAGTGCTA,-0.359 z-score
TTAGGTTTCGACACCGGGTTAGTGCTA,2.18 z-score
TTTGAACTGGGGTATCGATTAGTGCTA,0.28 z-score
GACGGGCTGGGGACTGGGGACGTGCTA,-0.828 z-score
TTGGGTCTCGGACTGGGTTAGTGCTAG,-0.232 z-score
TCAATTTCCATTTTCTAACTGTGCTAG,4.76 z-score

# Series 3
# Target: RNA binding protein fox-1 homolog 2, RRM domain, GST-SBP tag (RBFOX2, Homo sapiens, UniProt O43251-10, residues 100-194)
# Technique: RNA Bind-n-Seq
# Molecule type: RNA
# Medium: in vitro
# Concentration: 365 nM
# Notes: natural RNA segment, single round, ends assumed
# Relative to: no-protein control
# Reading: higher = stronger binding
# Shared flanks, not repeated: GGGAGUUCUACAGUCCGACGAUC … UGGAAUUCUCGGGUGCCAA
# Residues (chain): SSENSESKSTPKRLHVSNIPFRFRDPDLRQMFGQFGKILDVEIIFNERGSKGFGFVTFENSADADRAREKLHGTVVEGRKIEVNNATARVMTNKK
Oligonucleotide,RBNS enrichment (R)
GUUGUGGGGUGGUAGUGUGAAUGGCUUGAGGAGGCCUAAUGGCAGGGGCUCUGCUGAAGUGGCCUUCCACUGGAGUCUUGUUCUCAACAGUCCCUUGUGCCAGGUCAGCU,0.362
UCUUAACCAUAAGAAUUGAAAUGGUGAAGAAACAAGUAUACACUAGAGGCUCUUAAAAGUAUUGAAAGACAAUACUGCUGUUAUAUAGCAAGACAUAAACAGAUUAUAAA,1.52
CAGAUCCAAGCAUAUAAAAAGCCUGUAUAUUUUUUAAAAACACAUCUUAACUCCACGCUUUACGAUAUUAUAAAAGUUGAAUGGUUCCUCUUGGUAAGGAUAUUUGCUUA,0.697
CUAUGAUGACUUCAGAAGAUACAAUGGUCCCAGGGGCCAAGUAGAAAGCAUUUUUAAAGAUUAAUCUGAAUUAAGCUUUAUCAGUGUACUCUUUAUCUGUGUUACUAGUG,0.289
AGGCAGAGAGGCAGGCUGCCAGGCGCCACCAGCUGCCCCGCCCUUCGGCUGCCCAGCUCCGUGGAUAGACCUCCUCUGGGGGUGGUGCUGCUUGUAUGUUUACAUGAAAU,0.891
GUGAGAUUUUCAUCCAAAGCCACACUCCUAGCCUAAGGCACUUCAUCUUUACGAUAUAAAAUGAUGGCUCUCAAAUGAUUUUUCCAUCCAUUGUCCCGAUCCAGCUAUCA,0.301
CGUCCUCUGCUCUCUGCUAUGUGGUUAUUCUAAACGUCACUGGCCAGGGGACUCGCCUACUGAGAGCUGUCAUUGACUUACUGUCUAAAGCCCUGUGCUCCGUGACUCCC,0.248
AAUCAUAGGGGCAGUUUCUCCCAUACUGUUCUGGUGGUAGUGAAUAAGUCUCACGAGAUCUGAUGGUUUAAUAAGGGGUUUCCCCUUUUGCUUGGCUCUCAUUCUCUCUU,0.26
GGUGCCCACCUGGGCUAUGUGGGGAGCACCACUGUCUCGGGAUGCGCGAAUUUUUUUUUUUUUUUUAAUUAACAGGGCAUUAGAAGAUGAUUUUGCCAAAAUUGUCAUGA,1.43
ACAUUCAGGCCAGACACUUGAAAGUGACUGUUUGUUCUUAUAGUGUCCCCAAGUCUGCUAAUUAAGGGCCCACUUCUACUUUCUAGUCGCACUUCUGAAAUUCCAUAUUU,0.367
CCUGCCUCCCCCAGGGCAGGUUGGAGCCCUCAGCCCUGGCUUCUGCUCUCAGCCAGCACCACUGCCCGCUGAUCUCCGUGAUGAUUAACCUGCUGCUUCCUUACACAAGG,0.321
GACGUUAAAAUAAUGAUUUGAUUUCCUGCCCUGGUUUGAAGGUCCAUUUUAUUCCUUUGCACUCAUUCACUGUUUCUCCUUUUAAAAUCCCUAAAAAUAUUUCCACCGUC,0.463

# Series 4
# Target: RING finger protein unkempt homolog, zinc fingers 1-6, GST-SBP tag (UNK, Homo sapiens, UniProt Q9C0B0, residues 30-357)
# Chain of UniProt Q9C0B0 (30-357, looked up): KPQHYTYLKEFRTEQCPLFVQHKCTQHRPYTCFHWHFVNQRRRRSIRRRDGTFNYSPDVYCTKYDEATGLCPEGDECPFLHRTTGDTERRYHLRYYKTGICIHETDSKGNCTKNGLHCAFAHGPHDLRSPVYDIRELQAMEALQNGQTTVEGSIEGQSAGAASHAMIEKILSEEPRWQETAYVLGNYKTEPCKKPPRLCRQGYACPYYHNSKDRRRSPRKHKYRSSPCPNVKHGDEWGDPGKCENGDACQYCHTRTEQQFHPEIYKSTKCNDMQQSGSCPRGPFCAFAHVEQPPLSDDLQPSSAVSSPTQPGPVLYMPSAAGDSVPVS
# Technique: RNA Bind-n-Seq
# Molecule type: RNA
# Medium: in vitro
# Concentration: not given
# Notes: RNA with constant flanks, human and mouse sites, ends assumed
# Relative to: input RNA pool
# Reading: higher = stronger binding
# Shared flanks, not repeated: GGGAGUUCUACAGUCCGACGAUC … CAACAGAGGAUUGAGCAUCA
Oligonucleotide,bound/input enrichment [ratio]
UGGUCAUUUAUAGCAAUUAGAGUGGGUUGCCCCUCUACUUCUCCCAAGAAGAAAUCCCAAAUAGAUUCCUUUCAUGUCAGAUUAUACUGUUCUGAUUUUAUUUUCUAUUAUUUUUACAUA,20
GUCAGGACCUGGGUGGGUGGUCCUGAAUGCUUGGCUGGUGGGUUUGGGAGGAUGUGGAGCUAUAGAGGCCUACUCUGCUUCCUAGGUCUCGAAGUCCUCGGAAGCCAAUAGACUCCCUUC,0.237
GGAGAUCGGGCCGCGCGCUGAGAGCACCGAGUGGCGGAGAGGCCGCGCGGCGCGGGGCAGGGCCCGAGCGCAGCCCCCGGACGCAGGAGACCGGAGCGCAGUCGCGGCCUGAGCGGCGGG,1.32
UUAGUACCAAGAUGUUCUUUUUUCAUUAUCAGUCUUUCAGAUGUCUAUUUUCUUGCUGAAUAGCAGAGGACUUUAUUUCCACCUCCCUAUAAAGUGUGAGCACUGUGUUUCAGCGAGCUG,1.01
AAGGUGCUUGAACCAUAUCCAUCAAAAUUAAGCGGCCUGAAAGGGAAAAAUAUCUUCCUAGUAGCUGCUACACUCAGACCUGAGACUAUGUUUGGGCAGACAAAUUGUUGGGUUCGGCCU,0.187
GAUUAUCUUCGUUCAAAUGGCUAUGAAGAGGCAUAUUCAGUUUUUAAAAAGGAAGCUGAAUUAGAUGUGAAUGAAGAAUUAGAUAAAAAGUAUGCUGGUCUUUUGGAAAAAAAAUGGACA,3.65
GAGAGGACGCUGGGACUCAGCAGCCCAUGUGACAACAGGGUUCCAGCACAGCAGCUGUAUUUUACCACCCCUUCCAACCAGAAUGUAUACCAGGUGGACUCUCUGCAAUCUACGUGAAAG,0.248
AAUGAGGCUGGUGAUGACCUUGAAGCUGUAGCCAAAUUUCUGGACUCUACAGGCUCAAGAUUAGAUUAUCGUCGCUAUGCAGACACACUCUUCGAUAUCCUGGUGGCUGGCAGUAUGCUU,0.328
AAACAAAAAAGAGAGCAAAAGUUGAUUUCUACAAAAACAGAUAAAAAGAAGGCAGAAAAGAAGAAGAAUAAAAAGAAAGAAAUCCAGAAUGGGACCCUUCGUGAAUCUGAUUCUGAGCAC,0.371
AUGUGCAAGGAGAUUAUUCCAACUAGUGAAUUUAUUAACAGUAAAUUAACAGCAAAAGCAAAUAGGCAGCUUCAAGACCCUCUAGUAAUCAUGACAGGAAACAUCCCAACAUGGCUCACU,3.93
AUUUUUCAUUUUGUUUGUUCUAAGAGGAUUGAAAAUCAGUUUAGUUUAAAUGUCUUUCUGUUAGGCCUUUCUUUCUUACAAUGAAGAGAUGAUUCUUCUAGUUUAUGGUUAAAAGUUUUU,4.55

# A few entries again (series 2):
Oligonucleotide,fitted relative affinity
TTAGGTTTCGGACTCGGTTAGTGCTAG,3.77 z-score
TTAGGACTTGACACTGGGTTAGTGCTA,-0.359 z-score
TTTGAACTGGGGTATCGATTAGTGCTA,0.28 z-score
ATGGAAATGCACCCCACGCTGTGCTAG,0.502 z-score
GACAGTTTCGGGTATCGGGACGTGCTA,7.6 z-score
GACGGGCTGGGGACTGGGGACGTGCTA,-0.828 z-score
TTGGGTCTCGGACTGGGTTAGTGCTAG,-0.232 z-score
GGGAGCTATTAATTATTTTGGTGCTAG,-0.337 z-score
TCAGTTCTTTTTTTCAAACTGTGCTAG,1.42 z-score
